# Published values pooled from the literature.
# ± marks the error that the study gave.
# bglR: Beta-glucuronidase (bglR, Clostridium perfringens, UniProt Q8XP19)
# OPG122: mRNA-decapping protein OPG122 (OPG122, Vaccinia virus, UniProt P04312)
# Replicase polyprotein 1a papain-like protease: Replicase polyprotein 1a, papain-like protease (Severe acute respiratory syndrome coronavirus 2, UniProt P0DTC1)
Structure (SMILES),target or system,assay,system,conditions,measurement,result
Cc1cc(-c2cnc3c(c2)c(O)c(-c2ccccc2)c(=O)n3O)ccc1F,"Resolvase OPG149 (OPG149, Monkeypox virus, UniProt A0A7H0DNC1)",inhibitor,,,IC50,1.4 ± 0.2 µM
C[C@H]1CN(c2nnnc3c2sc2nc(N4CCOCC4)c4c(c23)CCCC4)CCN1,bglR,,,,IC50,> 100 µM
CC[C@H](C)[C@H](NC(=O)[C@H](CCCCN)NC(=O)[C@H](CCCCN)NC(=O)[C@H](CC(C)C)NC(=O)[C@H](Cc1c[nH]c2ccccc12)NC(=O)CN)C(=O)NCC(=O)N[C@@H](CCCCN)C(=O)N[C@@H](CCCCN)C(=O)N[C@H](C(=O)N[C@@H](CCC(=O)O)C(=O)N[C@@H](CCCNC(=N)N)C(=O)N[C@H](C(=O)NCC(=O)N[C@@H](CCC(N)=O)C(=O)N[C@@H](Cc1c[nH]cn1)C(=O)N[C@H](C(=O)N[C@@H](CCCNC(=N)N)C(=O)N[C@@H](CC(=O)O)C(=O)N[C@@H](C)C(=O)N[C@H](C(=O)N[C@H](C(=O)N[C@@H](CCC(N)=O)C(=O)N[C@H](C(=O)N[C@H](C(=O)NCC(=O)N[C@H](C(=O)N[C@@H](C)C(=O)N[C@@H](CCC(N)=O)C(=O)N[C@@H](CCC(N)=O)C(=O)N[C@@H](C)C(=O)N[C@@H](C)C(=O)N[C@@H](CC(N)=O)C(=O)N[C@H](C(=O)N[C@@H](C)C(=O)N[C@@H](C)C(=O)N[C@H](C(=O)N[C@@H](CC(C)C)C(=O)N[C@@H](CCCCN)C(N)=O)[C@@H](C)O)C(C)C)C(C)C)[C@@H](C)CC)[C@@H](C)O)[C@@H](C)CC)[C@@H](C)O)[C@@H](C)O)C(C)C)[C@@H](C)CC,"KCNH2 (Homo sapiens, UniProt Q12809)","ion current, inhibitor, patch clamp",,,IC50,> 30 µM
CCCCCCCCCCCCCCCC(=O)N[C@@H](CCC(=O)NCCOCCOCCC(=O)NCCOCCOCCC(=O)NCCCC[C@H](NC(=O)[C@H](CC(=O)O)NC(=O)[C@H](CC(C)C)NC(=O)[C@H](Cc1ccc(O)cc1)NC(=O)[C@H](CCCCN)NC(=O)[C@H](CO)NC(=O)[C@H](Cc1ccc(O)cc1)NC(=O)[C@H](CC(=O)O)NC(=O)[C@H](CO)NC(=O)[C@@H](NC(=O)[C@H](Cc1ccccc1)NC(=O)[C@@H](NC(=O)CNC(=O)[C@H](CCC(N)=O)NC(=O)[C@@H](CO)NC(=O)[C@@H](N)Cc1c[nH]cn1)[C@@H](C)O)[C@@H](C)O)C(=O)N[C@@H](CCCNC(=N)N)C(=O)N[C@@H](CCCNC(=N)N)C(=O)N[C@@H](C)C(=O)N[C@@H](CCC(N)=O)C(=O)N[C@@H](CC(=O)O)C(=O)N[C@@H](Cc1ccccc1)C(=O)N[C@H](C(=O)N[C@@H](CCC(N)=O)C(=O)N[C@@H](Cc1c[nH]c2ccccc12)C(=O)N[C@@H](CC(C)C)C(=O)N[C@@H](CC(C)C)C(=O)N[C@@H](CC(N)=O)C(=O)N[C@H](C(=O)NCC(=O)NCC(=O)N1CCC[C@H]1C(=O)N[C@@H](CO)C(=O)N[C@@H](CO)C(=O)NCC(=O)N[C@@H](C)C(=O)N1CCC[C@H]1C(=O)N1CCC[C@H]1C(=O)N1CCC[C@H]1C(=O)N[C@@H](CO)C(N)=O)[C@@H](C)O)C(C)C)C(=O)O,,,"Sprague-Dawley rat, female","subcutaneous, 20 µg/kg once daily, 14 days",urea,3.87 ± 0.73 mmol/L
N#CC(CC1CCCNC1=O)NC(=O)C(CC1CC1)NC(=O)c1cc2cc(F)cc(F)c2[nH]1 (stereo not shown),"Cathepsin S (CTSS, Homo sapiens, UniProt P25774)","enzyme activity, inhibitor",,"pH 5, with preincubation",IC50,0.4 µM
CCC(C(=O)Nc1ccccc1OC)n1cccc2nc(SCc3ccc(F)cc3)nc1-2 (stereo not shown),"Replicase polyprotein 1ab, papain-like protease (rep, Middle East respiratory syndrome-related coronavirus, UniProt K9N7C7)","enzyme activity, inhibitor",,,IC50,> 100 µM
COC1C(O)C(COP(=O)(O)OP(=O)(O)OP(=O)(O)O)OC1n1cnc2c(=O)[nH]c(N)nc21 (stereo not shown),OPG122,,,,IC50,27 µM
CC(C)C[C@H](NC(=O)[C@H](CC(=O)O)NC(=O)[C@H](Cc1ccc(O)cc1)NC(=O)[C@H](CCCCN)NC(=O)[C@@H]1CSSC[C@@H]2NC(=O)[C@H](CCCCN)NC(=O)[C@H](CC(=O)O)NC(=O)[C@H](CC(N)=O)NC(=O)[C@H](CO)NC(=O)[C@@H]3CCCN3C(=O)[C@H](CC(N)=O)NC(=O)[C@@H]3CSSC[C@H](NC(=O)[C@H](C(C)C)NC(=O)[C@H](CC(C)C)NC(=O)[C@H](CO)NC(=O)[C@H](CO)NC(=O)[C@H](CO)NC(=O)[C@H](CCCCN)NC(=O)[C@H](CSSC[C@H](NC(=O)[C@H](C)N)C(=O)N[C@@H](CC(C)C)C(=O)NCC(=O)N[C@@H](Cc4ccccc4)C(=O)NCC(=O)N[C@@H](CCC(=O)O)C(=O)N[C@@H](CCCCN)C(=O)N3)NC2=O)C(=O)N[C@@H](CO)C(=O)N[C@@H](CCC(N)=O)C(=O)N[C@@H](C)C(=O)N[C@@H](Cc2c[nH]cn2)C(=O)N[C@@H](CCCCN)C(=O)N[C@@H](Cc2c[nH]c3ccccc23)C(=O)N1)C(=O)O,"SCN9A (Homo sapiens, UniProt Q15858)","ion current, inhibitor, patch clamp",,,IC50,4.07 µM
Cc1ccc(N2CC(N3CCC(C)(O)CC3)C2)cc1C(=O)NC1(c2ccc3c4c(cccc24)CC3)CC1,Replicase polyprotein 1a papain-like protease,cell-free assay,,,IC50,0.002 µM
CC(C)C[C@@H]1NC(=O)[C@H](CCCNC(=N)N)NC(=O)[C@@H]2CCCN2C(=O)[C@@H]2CSSC[C@H](NC(=O)CNC(=O)[C@@H]3CCCN3C(=O)[C@H](CCCCN)NC(=O)[C@H](CC(=O)O)NC(=O)[C@@H](NC(=O)CN)C(C)C)C(=O)N[C@@H](CCCNC(=N)N)C(=O)N[C@@H](Cc3ccc(O)cc3)C(=O)N[C@@H](CC(C)C)C(=O)N[C@@H](Cc3ccccc3)C(=O)NCC(=O)NCC(=O)N[C@H]3CSSC[C@H](NC(=O)CNC1=O)C(=O)N[C@@H](CCCCN)C(=O)NCC(=O)N[C@@H](CCCCN)C(=O)NCC(=O)N[C@@H](Cc1c[nH]cn1)C(=O)N[C@@H](CC(=O)O)C(=O)N[C@@H](Cc1ccc(O)cc1)C(=O)N[C@H](C(=O)N[C@@H](C)C(=O)N[C@@H](Cc1c[nH]c4ccccc14)C(=O)N[C@@H](CC(=O)O)C(=O)NCC(=O)N[C@H](C(=O)N[C@@H](Cc1ccccc1)C(=O)N[C@@H](CO)C(=O)N[C@@H](CC(=O)O)C(=O)O)[C@@H](C)O)CSSC[C@H](NC(=O)[C@H](CC(=O)O)NC(=O)[C@H](CC(=O)O)NC(=O)[C@H](CC(=O)O)NC(=O)[C@H](CO)NC(=O)[C@H](CCCCN)NC3=O)C(=O)N2,"SCN2A (Homo sapiens, UniProt Q99250)","peak sodium current, inhibitor, automated patch clamp",HEK293,"holding potential -100 mV, together with: 0.1 % BSA",IC50,1.23 µM
Cc1cc(O)cc(C)c1C[C@H](N)C(=O)NCC(=O)NCC(=O)N[C@@H](Cc1ccccc1)C(=O)N[C@H](C(=O)NCC(=O)N[C@@H](C)C(=O)N[C@@H](CCCNC(=N)N)C(=O)N[C@@H](CCCCN)C(=O)N[C@@H](CO)C(=O)N[C@@H](C)C(=O)N[C@@H](CCCNC(=N)N)C(=O)N[C@@H](CCCCN)C(N)=O)[C@@H](C)O,"OPRM1 (Homo sapiens, UniProt P35372)","ligand displacement, radioligand",,cell membranes,Ki,0.0912 nM
Cc1cc(/C=C/C#N)cc(C)c1-n1cnc2cnc(Nc3ccc(C#N)cc3)nc21,HIV-1,"viral replication, single-round infection",RT mutant D67E,,EC50,0.0011 ± 0.0004 µM
Nc1nc2c(ncn2C2OC(COP(=O)(O)O)C(O)C2O)c(=O)[nH]1 (stereo not shown),OPG122,,,,IC50,> 200 µM
CC[C@H](C)[C@@H]1NC(=O)[C@H](CCCNC(=N)N)NC(=O)[C@H](CO)NC(=O)[C@H](CCC(=O)O)NC(=O)[C@H](CC(=O)O)NC(=O)CNC(=O)CNC(=O)[C@H]([C@@H](C)O)NC(=O)[C@H](Cc2ccccc2)NC(=O)[C@H](CO)NC(=O)[C@H]([C@@H](C)O)NC(=O)[C@H](C)NC(=O)[C@@H]2CSSC[C@@H](C(=O)N[C@@H](Cc3ccc(O)cc3)C(=O)N[C@@H](Cc3ccccc3)C(=O)N[C@H](C(=O)N[C@H](C(=O)NCC(=O)O)[C@@H](C)O)[C@@H](C)O)NC(=O)[C@H]([C@@H](C)O)NC(=O)[C@H](CSSC[C@H](NC(=O)[C@H](CCC(=O)O)NC(=O)[C@H](CO)NC(=O)[C@H](CCCCN)NC(=O)[C@H](Cc3ccc(O)cc3)NC(=O)[C@@H]3CCCN3C(=O)[C@H](Cc3ccccc3)NC(=O)[C@H](CCCCN)NC(=O)[C@H](CCCNC(=N)N)NC(=O)[C@H](CCCCN)NC(=O)[C@H](CCCCN)NC(=O)[C@H](Cc3ccc(O)cc3)NC(=O)[C@@H]3CCCN3C(=O)[C@@H](NC(=O)[C@H](CC(=O)O)NC(=O)[C@H](CCCCN)NC(=O)[C@H](CCCCN)NC(=O)[C@@H](NC(=O)[C@@H](NC(=O)[C@@H](N)CCC(=O)O)C(C)C)[C@@H](C)CC)[C@@H](C)O)C(=O)N[C@@H](CC(C)C)C(=O)N[C@@H](CCCCN)C(=O)N[C@@H](C)C(=O)N2)NC(=O)[C@H](CCCCN)NC(=O)[C@H](Cc2ccccc2)NC(=O)[C@H](Cc2ccccc2)NC(=O)CNC(=O)[C@@H]2CCCN2C(=O)[C@H](CCCCN)NC(=O)CNC(=O)[C@H](CCC(=O)O)NC(=O)[C@H](CCC(N)=O)NC1=O,"KCNQ4 (Homo sapiens, UniProt P56696, D288A)","potassium current, whole-cell patch clamp",HEK-293T,,IC50,219 ± 7.6 µM
Cc1ccc(N2CC3CC(C2)N3)cc1C(=O)NC1(c2ccc3c4c(cccc24)C(=O)N3C)CC1,Replicase polyprotein 1a papain-like protease,cell-free assay,,,IC50,0.0063 µM
C(=C\c1ccc(-c2ccccc2)cc1)/Cn1ccnc1,"cyp121 (Mycobacterium tuberculosis, UniProt P9WPP7)","mycocyclosin formation, inhibitor, LC-MS/MS",,together with: cYY 20 µM,IC50,26 µM
CC(=O)OC/C=C/C1=CC2=C(CO1)C(=O)[C@](C)(O)[C@H](OC(=O)c1c(C)cc(O)cc1O)C2,"Neuraminidase (NA, Influenza A virus, UniProt Q6DPL2)",,influenza A virus H5N1,,IC50,29.9 ± 0.6 µM
CC1=C(C(=O)Nc2ccc(F)cc2)C(c2ccccc2Br)NC(=S)N1 (stereo not shown),"Angiotensin-converting enzyme 2, with SARS-CoV-2 spike RBD (ACE2, Homo sapiens, UniProt Q9BYF1)",inhibitor,,,IC50,0.0216 ± 0.00092 µM
CC[C@H](C)[C@@H]1NC(=O)[C@@H]2CSSC[C@H](NC(=O)[C@H](CCCNC(=N)N)NC(=O)[C@@H]3CSSC[C@H](NC1=O)C(=O)N[C@@H]([C@@H](C)O)C(=O)N[C@@H](CCCNC(=N)N)C(=O)NCC(=O)N[C@@H](Cc1ccccc1)C(=O)N3)C(=O)N1CCC[C@H]1C(=O)N[C@H]1CSSC[C@H](NC(=O)CNC(=O)[C@H](Cc3ccc(O)cc3)NC(=O)[C@H](CCCNC(=N)N)NC(=O)[C@H](CO)NC1=O)C(=O)N[C@@H](Cc1c[nH]c3ccccc13)C(=O)N2,"Lethal factor (Bacillus anthracis, UniProt P15917)","enzyme activity, inhibitor",,,IC50,0.971 ± 0.06 µM
CC[C@H](C)[C@H](NC(=O)[C@H](CCCCN)NC(=O)[C@H](Cc1c[nH]c2ccccc12)NC(=O)[C@H](CC(C)C)NC(=O)[C@H](CC(C)C)NC(=O)[C@H](CC(=O)O)NC(=O)[C@@H](NC(=O)[C@H](CCCNC(=N)N)NC(=O)[C@H](CCC(=O)O)NC(=O)[C@H](CCCNC(=N)N)NC(=O)[C@H](CC(=O)O)NC(=O)[C@H](CC(C)C)NC(C)=O)[C@@H](C)CC)C(=O)N[C@@H](C)C(=O)N[C@@H](CCCNC(=N)N)C(=O)N[C@@H](C)C(=O)NCC(=O)N[C@@H](C)C(=O)N[C@@H](CCCNC(=N)N)C(=O)N[C@@H](CO)C(=O)N[C@@H](C)C(=O)N[C@H](C(=O)NCC(N)=O)C(C)C,,"membrane partitioning, 1H NMR",POPC:POPG:cholesterol SUV,"pH 7.5, 25 °C",Kd,1000 ± 60 µM
O=c1[nH]c(=O)c2ncn(C3OC(COP(=O)(O)OP(=O)(O)OP(=O)(O)O)C(O)C3O)c2[nH]1 (stereo not shown),OPG122,,,,IC50,> 200 µM
C1CCc2c(c(N3CCOCC3)nc3sc4c(N5CCCNCC5)nnnc4c23)C1,bglR,,,,IC50,2 ± 0.1 µM
Nc1ccc(Cl)cc1C(=O)OCC(COCP(=O)(O)OP(=O)(O)OP(=O)(O)O)Cn1cnc2c(N)ncnc21 (stereo not shown),"cya (Bacillus anthracis, UniProt P40136)",,,,IC50,0.622 ± 0.124 µM
CC1=CC(=C(c2cc(C)c(O)c(C(=O)O)c2)c2c(Cl)ccc(S(=O)(=O)O)c2Cl)C=C(C(=O)O)C1=O,"Ba71V-97, DNA complex (African swine fever virus, UniProt P42494)","enzyme activity, inhibitor",,,IC50,35.2 ± 1.8 µM
CCC(CC)O[C@@H]1C=C(C(=O)O)C[C@H](NCc2ccc(-c3ncccn3)cc2)[C@H]1NC(C)=O,"Neuraminidase (NA, Influenza A virus, UniProt P03468)","enzyme activity, inhibitor",,,IC50,4.2 µM

# A few entries again:
Structure (SMILES),target or system,assay,system,conditions,measurement,result
CC1=C(C(=O)Nc2ccc(F)cc2)C(c2ccccc2Br)NC(=S)N1 (stereo not shown),"Angiotensin-converting enzyme 2, with SARS-CoV-2 spike RBD (ACE2, Homo sapiens, UniProt Q9BYF1)",inhibitor,,,IC50,0.0216 ± 0.00092 µM
